Assay results of several laboratories.
Protocols differ between the studies behind these lines. Values joined by “and” are separate records of one study, mostly repeats; a detail may differ. ± marks the error that the study gave.
MAL12: Alpha-glucosidase MAL12 (MAL12, Saccharomyces cerevisiae S288c, UniProt P53341)
UniProt P53341, sequence (whole entry, looked up): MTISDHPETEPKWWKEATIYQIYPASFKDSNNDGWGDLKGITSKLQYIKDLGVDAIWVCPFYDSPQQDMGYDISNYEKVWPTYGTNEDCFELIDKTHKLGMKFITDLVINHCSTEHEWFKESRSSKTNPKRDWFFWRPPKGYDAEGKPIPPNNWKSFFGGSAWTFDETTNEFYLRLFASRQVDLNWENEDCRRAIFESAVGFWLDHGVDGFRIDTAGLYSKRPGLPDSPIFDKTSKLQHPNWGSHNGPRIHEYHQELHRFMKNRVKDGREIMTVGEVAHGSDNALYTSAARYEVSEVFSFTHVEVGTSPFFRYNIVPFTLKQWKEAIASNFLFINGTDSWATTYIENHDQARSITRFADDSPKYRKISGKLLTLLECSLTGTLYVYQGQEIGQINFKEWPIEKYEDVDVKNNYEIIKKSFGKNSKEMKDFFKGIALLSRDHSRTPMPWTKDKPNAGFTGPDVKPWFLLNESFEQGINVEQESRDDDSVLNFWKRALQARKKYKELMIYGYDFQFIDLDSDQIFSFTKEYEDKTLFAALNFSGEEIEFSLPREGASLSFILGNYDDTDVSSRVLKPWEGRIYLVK
Urease subunit alpha: Urease subunit alpha (Sporosarcina pasteurii, UniProt P41020)
UniProt P41020, sequence (whole entry, looked up): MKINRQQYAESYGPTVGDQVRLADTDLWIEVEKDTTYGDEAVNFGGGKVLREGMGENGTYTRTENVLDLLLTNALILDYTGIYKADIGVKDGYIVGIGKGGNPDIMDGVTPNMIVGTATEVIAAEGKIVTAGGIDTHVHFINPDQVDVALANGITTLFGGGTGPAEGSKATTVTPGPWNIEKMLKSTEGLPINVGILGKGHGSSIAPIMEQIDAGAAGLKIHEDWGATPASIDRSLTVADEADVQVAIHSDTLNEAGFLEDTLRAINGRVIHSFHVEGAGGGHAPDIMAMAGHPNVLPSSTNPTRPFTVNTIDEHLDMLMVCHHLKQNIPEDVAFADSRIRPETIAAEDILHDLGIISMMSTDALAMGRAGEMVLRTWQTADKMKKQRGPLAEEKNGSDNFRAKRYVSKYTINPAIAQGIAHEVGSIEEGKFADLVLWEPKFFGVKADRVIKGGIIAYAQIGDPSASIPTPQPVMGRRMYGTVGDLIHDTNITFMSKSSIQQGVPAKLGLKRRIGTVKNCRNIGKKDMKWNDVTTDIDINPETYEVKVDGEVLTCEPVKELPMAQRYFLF
HTR1A: 5-hydroxytryptamine receptor 1A (HTR1A, Homo sapiens, UniProt P08908)
UniProt P08908, sequence (whole entry, looked up): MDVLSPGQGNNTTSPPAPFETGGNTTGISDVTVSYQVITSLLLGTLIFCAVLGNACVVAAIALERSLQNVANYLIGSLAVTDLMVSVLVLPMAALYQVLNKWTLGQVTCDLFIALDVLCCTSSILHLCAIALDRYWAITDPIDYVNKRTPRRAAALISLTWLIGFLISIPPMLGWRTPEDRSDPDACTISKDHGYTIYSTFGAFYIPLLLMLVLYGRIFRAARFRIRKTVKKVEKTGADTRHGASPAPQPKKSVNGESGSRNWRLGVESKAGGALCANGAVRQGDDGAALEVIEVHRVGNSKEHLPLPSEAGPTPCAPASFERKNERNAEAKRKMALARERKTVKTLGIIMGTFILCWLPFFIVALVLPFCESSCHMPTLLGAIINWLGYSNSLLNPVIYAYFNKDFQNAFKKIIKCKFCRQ
MAP2K1: Dual specificity mitogen-activated protein kinase kinase 1 (MAP2K1, Homo sapiens, UniProt Q02750)
UniProt Q02750, sequence (whole entry, looked up): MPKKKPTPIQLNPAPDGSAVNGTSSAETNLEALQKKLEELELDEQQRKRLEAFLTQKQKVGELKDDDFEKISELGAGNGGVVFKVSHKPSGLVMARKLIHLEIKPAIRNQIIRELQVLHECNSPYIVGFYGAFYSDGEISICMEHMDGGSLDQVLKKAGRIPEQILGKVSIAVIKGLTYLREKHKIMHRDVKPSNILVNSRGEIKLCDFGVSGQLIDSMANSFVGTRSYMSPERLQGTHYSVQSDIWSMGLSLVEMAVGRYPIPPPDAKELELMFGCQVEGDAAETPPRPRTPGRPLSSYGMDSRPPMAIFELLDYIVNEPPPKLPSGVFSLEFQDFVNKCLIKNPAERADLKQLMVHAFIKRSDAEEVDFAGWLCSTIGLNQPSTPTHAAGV
DRD5: D(1B) dopamine receptor (DRD5, Homo sapiens, UniProt P21918)
UniProt P21918, sequence (whole entry, looked up): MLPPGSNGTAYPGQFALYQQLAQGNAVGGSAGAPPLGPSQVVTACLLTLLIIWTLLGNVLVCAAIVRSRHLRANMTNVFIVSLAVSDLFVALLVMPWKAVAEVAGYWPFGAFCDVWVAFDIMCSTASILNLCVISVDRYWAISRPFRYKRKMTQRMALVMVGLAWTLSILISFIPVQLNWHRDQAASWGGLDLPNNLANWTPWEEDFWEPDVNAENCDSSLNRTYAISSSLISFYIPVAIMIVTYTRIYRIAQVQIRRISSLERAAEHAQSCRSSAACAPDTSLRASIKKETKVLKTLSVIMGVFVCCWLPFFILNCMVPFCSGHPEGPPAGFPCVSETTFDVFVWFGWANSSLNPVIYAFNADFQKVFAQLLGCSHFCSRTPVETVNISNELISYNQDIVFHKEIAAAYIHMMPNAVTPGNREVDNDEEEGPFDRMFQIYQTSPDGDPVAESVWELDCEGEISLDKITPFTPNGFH
TRHR: Thyrotropin-releasing hormone receptor (TRHR, Homo sapiens, UniProt P34981)
UniProt P34981, sequence (whole entry, looked up): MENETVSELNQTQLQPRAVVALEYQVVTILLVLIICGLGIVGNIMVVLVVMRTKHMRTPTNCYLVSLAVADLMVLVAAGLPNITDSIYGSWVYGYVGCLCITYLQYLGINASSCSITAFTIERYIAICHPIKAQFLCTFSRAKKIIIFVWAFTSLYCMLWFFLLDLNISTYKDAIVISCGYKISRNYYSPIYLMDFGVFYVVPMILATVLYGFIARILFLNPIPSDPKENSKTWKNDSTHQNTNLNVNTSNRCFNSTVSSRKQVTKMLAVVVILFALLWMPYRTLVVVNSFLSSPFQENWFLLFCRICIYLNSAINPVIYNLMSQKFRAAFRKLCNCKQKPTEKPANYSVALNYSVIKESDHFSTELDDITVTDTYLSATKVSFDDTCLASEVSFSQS
HTR4: 5-hydroxytryptamine receptor 4 (HTR4, Homo sapiens, UniProt Q13639)
UniProt Q13639, sequence (whole entry, looked up): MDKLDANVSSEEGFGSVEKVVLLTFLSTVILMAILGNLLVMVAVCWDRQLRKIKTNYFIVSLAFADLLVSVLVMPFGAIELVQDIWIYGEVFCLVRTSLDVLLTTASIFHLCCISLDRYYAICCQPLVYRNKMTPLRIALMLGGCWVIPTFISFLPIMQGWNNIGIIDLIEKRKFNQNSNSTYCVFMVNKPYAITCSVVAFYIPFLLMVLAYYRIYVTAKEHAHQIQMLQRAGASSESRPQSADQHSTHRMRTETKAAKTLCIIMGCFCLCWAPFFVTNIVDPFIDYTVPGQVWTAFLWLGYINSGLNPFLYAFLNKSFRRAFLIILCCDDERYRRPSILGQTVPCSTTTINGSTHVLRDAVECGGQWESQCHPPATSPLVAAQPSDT
BRDT BD2: Bromodomain testis-specific protein, BD2 (BRDT, Homo sapiens, UniProt Q58F21)
UniProt Q8IWT6, sequence (whole entry, unmodified, looked up): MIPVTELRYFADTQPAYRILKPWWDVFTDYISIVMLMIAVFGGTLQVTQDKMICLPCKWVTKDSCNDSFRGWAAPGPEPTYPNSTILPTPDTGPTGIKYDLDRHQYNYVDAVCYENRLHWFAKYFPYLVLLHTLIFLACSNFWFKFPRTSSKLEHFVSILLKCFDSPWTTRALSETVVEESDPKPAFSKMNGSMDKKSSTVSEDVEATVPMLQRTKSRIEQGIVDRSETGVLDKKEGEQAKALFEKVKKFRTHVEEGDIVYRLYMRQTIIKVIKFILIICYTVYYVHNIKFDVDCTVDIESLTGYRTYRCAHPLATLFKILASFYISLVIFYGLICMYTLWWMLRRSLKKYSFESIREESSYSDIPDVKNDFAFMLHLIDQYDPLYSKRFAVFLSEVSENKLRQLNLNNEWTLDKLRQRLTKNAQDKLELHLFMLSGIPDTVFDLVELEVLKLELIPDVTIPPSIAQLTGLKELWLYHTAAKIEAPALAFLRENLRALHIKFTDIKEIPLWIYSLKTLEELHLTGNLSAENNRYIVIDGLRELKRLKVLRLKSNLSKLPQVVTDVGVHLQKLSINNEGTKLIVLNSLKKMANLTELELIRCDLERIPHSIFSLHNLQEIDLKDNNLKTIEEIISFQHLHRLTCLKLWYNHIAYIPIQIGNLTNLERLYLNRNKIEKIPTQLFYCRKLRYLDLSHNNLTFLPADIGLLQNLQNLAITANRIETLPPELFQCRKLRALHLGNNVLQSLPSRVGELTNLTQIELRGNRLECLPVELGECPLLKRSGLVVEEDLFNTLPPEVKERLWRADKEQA
UniProt P00748, sequence (whole entry, looked up): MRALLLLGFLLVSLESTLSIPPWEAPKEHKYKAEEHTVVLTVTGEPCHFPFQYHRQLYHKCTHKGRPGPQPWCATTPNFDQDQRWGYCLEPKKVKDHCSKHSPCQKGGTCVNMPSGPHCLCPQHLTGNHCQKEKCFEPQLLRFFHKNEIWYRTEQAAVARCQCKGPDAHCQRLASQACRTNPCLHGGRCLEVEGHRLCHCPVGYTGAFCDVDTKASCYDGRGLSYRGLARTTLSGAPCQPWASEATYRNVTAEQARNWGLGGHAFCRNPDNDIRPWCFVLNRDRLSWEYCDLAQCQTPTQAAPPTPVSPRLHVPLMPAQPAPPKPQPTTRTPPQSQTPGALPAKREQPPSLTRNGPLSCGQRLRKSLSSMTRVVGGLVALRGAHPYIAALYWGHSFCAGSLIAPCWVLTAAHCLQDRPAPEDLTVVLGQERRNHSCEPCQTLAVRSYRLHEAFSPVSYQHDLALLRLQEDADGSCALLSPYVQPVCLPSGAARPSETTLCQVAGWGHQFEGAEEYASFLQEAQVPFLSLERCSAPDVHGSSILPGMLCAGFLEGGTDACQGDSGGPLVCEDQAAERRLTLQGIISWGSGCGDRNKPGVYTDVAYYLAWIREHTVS

O=c1c(/C=N/NC(=S)Nc2c(F)cccc2F)coc2cc(F)ccc12
inhibition (MAL12; enzyme activity, inhibitor; 500 µM): 91.4%

Cc1ccc(NC(=S)N/N=C/C=C/c2ccc(F)cc2)cc1
inhibition (Urease subunit alpha; enzyme activity, indophenol method; 500 µM): 84.9%

COc1cccc(OC[C@H]2CN(CCN3CCc4ccccc43)CCO2)c1
inhibition (HTR1A; radioligand binding; concentration not given, together with: [3H]8-OH-DPAT): 65%

CC(C)c1ccc(NC(=S)N/N=C/C=C/c2ccc(F)cc2)cc1
inhibition (Urease subunit alpha; enzyme activity, indophenol method; 500 µM): 81.9%

COc1ccc(F)cc1C(=O)NCc1ccc(-c2nn([C@@H](C)C(F)(F)F)c(N)c2C(N)=O)cc1
inhibition (MAP2K1; target engagement, competitive chemoproteomics; human PBMCs; 1 µM): 3.8%

O=c1c(-c2ccc3c(c2)OCO3)coc2c(Cn3ccnc3)c(O)ccc12
inhibition (MAL12; inhibitor; 25 µM): < 0%

O=C(Nc1cccc2c(=O)cc(-c3nnn[nH]3)oc12)c1ccc(OCCCCc2ccccc2)cc1
inhibition (LRRC8A/LRRC8C (Homo sapiens, UniProt Q8IWT6+Q8TDW0, Y124F/Y126F); ion current, whole-cell patch clamp; HCT LRRC8-/- cells; 0.1 µM, +100 mV, Y124F/Y126F heteromers): -7.99% and -4.11% and -8.35% and 12.6% and 6.68% and -6.08%

Cc1cc(-c2ccnc3[nH]cc(F)c23)cc(F)c1[C@@]1(O)[C@H](C)CN(C(=O)CN)C[C@@H]1C
inhibition (AKT1 and AKT3; ATP probe binding, KiNativ, item: Lys2 site; HEK293T cell lysate; 0.1 µM): 7.9%

COc1ccc2c(c1)C(=O)N(CCCN1CCN(c3ccccc3OC)CC1)C2
inhibition (DRD5; radioligand binding; concentration not given, together with: [3H]SCH23390): 31.8%

O=C1N=C(N2CCCCN2)S/C1=C\c1ccc(F)cc1O
inhibition (rat alpha2-adrenergic receptor; radioligand binding; rat cerebral cortex; 10 µM, together with: [3H]RX 821002): < 10%

CN(C(=O)n1cnc(-c2ccc[n+]([O-])c2)c1)C1CCCCC1
inhibition (TRHR; 10 µM): -7.98%

Fc1ccc(/C=C/C=N/NC(=S)NCc2ccc(Cl)cc2)cc1
inhibition (Urease subunit alpha; enzyme activity, inhibitor, indophenol method; concentration not given; relative to: thiourea): inactive

O=C(NO)c1ccc(CN2CCCCc3ccccc32)c(F)c1
inhibition (DRD5; radioligand binding, radioligand displacement; 10 µM, mean of replicates): -0.09%

CCc1oc2ccccc2c1C(=O)c1cc(Br)c(O)c(Br)c1
inhibition (SLC22A12 (Homo sapiens, UniProt Q96S37, M214A); urate uptake; HEK293T; 0.5 µM, 10 min, 37 °C, together with: 200 µM [14C]urate): 39.6% and 44.2% and 36.5% and 44.7% and 46.4% and 40.5%

c1cncc(OC[C@@H]2CN(CCN3CCc4ccccc43)CCO2)c1
inhibition (HTR4; radioligand binding; concentration not given): 8.8%

CC[C@@H]1[C@H](F)C(=O)N[C@@H]1COc1nccc2cc(C(N)=O)c(OC)cc12
inhibition (MAP2K1; ATP-site probe binding, ActivX profiling; THP-1 cell lysate; 0.01 mM, Lys2 site): -1.6%

C[C@@H]1CCO[C@H]2Cn3cc(C(=O)NCc4ccc(F)cc4F)c(=O)c(O)c3C(=O)N12
inhibition (SLC29A4 (Homo sapiens, UniProt Q7RTT9); transport; MDCK-II, transfected; 0.1 µM, together with: MPP+ 10 µM): -3.65%

C[C@H]1C(=O)/C(=C/c2ccccc2)[C@H]2C[C@@H]1N(Cc1ccccc1)C[C@@]2(C)O
inhibition (Mu-type opioid receptor (Cavia porcellus, UniProt A0ACM8Q262); binding, radioligand binding; guinea pig brain membranes; 1 µM, together with: [3H]DAMGO): 0%

Cc1ncccc1OC[C@@H]1CN(CCN2CCc3ccccc32)CCO1
inhibition (HTR1A; radioligand binding; concentration not given, together with: [3H]8-OH-DPAT): 22.3%

COc1cc(-c2cc(C(C)=O)n3ccccc23)c(OC)cc1Cn1ccnc1
inhibition (BRDT BD2; 1 µM): 1.32%

N#Cc1ccc([C@H]2CCc3cncn32)c(F)c1
inhibition (Cytochrome P450 4V2 (CYP4V2, Homo sapiens, UniProt Q6ZWL3); 1 µM): 36 ± 19%

Cc1cc(-c2ccnc3[nH]cc(F)c23)cc(F)c1[C@@]1(O)[C@H](C)CN(C2CCS(=O)(=O)CC2)C[C@@H]1C
inhibition (AKT1 and AKT3; ATP probe binding, KiNativ, item: Lys2 site; HEK293T cell lysate; 10 µM): 18.7%

Cc1ccc(CNC(=O)[C@H](CCc2ccccc2)NC(=O)[C@H](CCc2ccccc2)NC(=O)[C@H](CCc2ccccc2)NC(=O)c2cnc(C)cn2)cc1
inhibition (F12 (Homo sapiens, UniProt P00748); enzyme activity, inhibitor; 100 µM): 45%

COc1cc(C(=O)NS(=O)(=O)c2ccccc2C)ccc1Cc1cn(C)c2ccc(NC(=O)OC3CCCC3)cc12
inhibition (Volume-regulated anion channel subunit LRRC8C, part LRRC8A IL1 chimera (LRRC8C, Homo sapiens, UniProt Q8TDW0, C43G/S11C); ion current, inhibitor, whole-cell patch clamp; HCT LRRC8-/- cells; 10 µM, +100 mV): 30.2% and 42.3% and 57.9% and 26% and 32.6%

C=CC[C@@H]1c2ccc(OC)c(OC)c2CN2CCc3cc4c(cc3[C@H]12)OCO4
inhibition (P2X purinoceptor 7 (Ailuropoda melanoleuca, UniProt G1M6C4); ATP-evoked current, whole-cell patch clamp; HEK293 (transfected); 10 µM, together with: ATP 1 mM): 78.7%

CCN1/C(=C/C(C)=O)Sc2ccc(F)cc21
inhibition (TACR2 (Homo sapiens, UniProt P21452); 10 µM): 0.12%

CN1CCN(c2cc(-c3ccncc3)c(-c3ccc4ccccc4c3)nn2)CC1
inhibition (TRHR; antagonist, FLIPR; 10 µM): 32%

Clc1cncc(OC[C@@H]2CN(CCN3CCc4ccccc43)CCO2)c1
inhibition (HTR4; radioligand binding; concentration not given): 24.4%

CCN(CC)C(=S)SSC(=S)N(CC)CC
inhibition (PTPN22 (Homo sapiens, UniProt Q9Y2R2); inhibitor, immunoblot; up to 75 µM, 2 min): inhibited

Cn1cc(-c2cnc3ccc(NC(=O)Nc4ccc(F)c(Br)c4)cc3n2)cn1
inhibition (IKBKB (Homo sapiens, UniProt O14920); kinase binding, KiNativ profiling, item: Lys2 peptide; PANC-1 lysate; 5 µM): 4.8%

CC(C)c1noc2ncc(C(=O)c3ccccc3O)cc12
inhibition (Asic3 (Rattus norvegicus, UniProt O35240); ion current, whole-cell patch-clamp; 10 µM, rASIC3): 3.6%

Cc1ccnc(OC[C@H]2CN(CC(=O)N3CCc4ccccc43)CCO2)c1
inhibition (DRD5; radioligand binding; concentration not given, together with: [3H]SCH23390): 16.1%

Cc1cc2c(cc1N1C(=O)c3cccc4c(CCCO)ccc(c34)C1=O)n(C)c(=O)n2C (racemic)
inhibition (BRDT BD2; binding, BROMOscan binding; 1000 nM): 8.8%

Cc1nn(-c2nc3ccccc3s2)c(O)c1C(c1ccccc1C(=O)O)c1c(C)nn(-c2nc3ccccc3s2)c1O
inhibition (CGAS (Homo sapiens, UniProt Q8N884); enzyme activity, inhibitor, pyrophosphatase-coupled; 50 µM, 1.5 h, together with: HT-DNA): 96.1%

O=C(CN1CCO[C@@H](COc2cccnc2)C1)N1CCc2ccccc21
inhibition (DRD5; radioligand binding; concentration not given, together with: [3H]SCH23390): -6.4%

Fc1ccc(/C=C/C=N/NC(=S)Nc2ccc(Cl)cc2)cc1
inhibition (Urease subunit alpha; enzyme activity, indophenol method; 500 µM): 82.6%

O=c1ccc2ccc(O)c(Cn3cccn3)c2o1
inhibition (MAL12; inhibitor; 25 µM): < 0%

CN(C)C1CCN(CC#Cc2nn(C3CCCC3)c3nc(NCc4ccccc4)ncc23)C1 (stereo not shown)
inhibition (5'-AMP-activated protein kinase catalytic subunit alpha-1, with beta1, gamma1 (PRKAA1, Homo sapiens, UniProt Q13131); enzyme activity, inhibitor, Z'-LYTE; 10000 nM): 68%

Cc1ccc(OC[C@H]2CN(CCN3CCc4ccccc43)CCO2)cn1
inhibition (DRD5; radioligand binding; concentration not given, together with: [3H]SCH23390): 3.5%

Cc1oc2c(Cn3cnc4ccccc43)c(O)ccc2c(=O)c1C
inhibition (MAL12; inhibitor; 25 µM): 8%

Some of these lines once more:
Cc1ccc(CNC(=O)[C@H](CCc2ccccc2)NC(=O)[C@H](CCc2ccccc2)NC(=O)[C@H](CCc2ccccc2)NC(=O)c2cnc(C)cn2)cc1
inhibition (F12 (Homo sapiens, UniProt P00748); enzyme activity, inhibitor; 100 µM): 45%

O=c1c(/C=N/NC(=S)Nc2c(F)cccc2F)coc2cc(F)ccc12
inhibition (MAL12; enzyme activity, inhibitor; 500 µM): 91.4%

COc1ccc(F)cc1C(=O)NCc1ccc(-c2nn([C@@H](C)C(F)(F)F)c(N)c2C(N)=O)cc1
inhibition (MAP2K1; target engagement, competitive chemoproteomics; human PBMCs; 1 µM): 3.8%

O=c1c(-c2ccc3c(c2)OCO3)coc2c(Cn3ccnc3)c(O)ccc12
inhibition (MAL12; inhibitor; 25 µM): < 0%

Cc1ccc(OC[C@H]2CN(CCN3CCc4ccccc43)CCO2)cn1
inhibition (DRD5; radioligand binding; concentration not given, together with: [3H]SCH23390): 3.5%

O=c1ccc2ccc(O)c(Cn3cccn3)c2o1
inhibition (MAL12; inhibitor; 25 µM): < 0%

Cc1oc2c(Cn3cnc4ccccc43)c(O)ccc2c(=O)c1C
inhibition (MAL12; inhibitor; 25 µM): 8%
